Results pooled from the literature.
Each numbered part is a random draw from the data of one study; scales do not carry over between parts.

Sample 1
Target: RNA binding protein fox-1 homolog 2, RRM domain, GST-SBP tag (RBFOX2, Homo sapiens, UniProt O43251-10, residues 100-194)
Technique: RNA Bind-n-Seq
Form: RNA
Matrix: in vitro
Concentration: 365 nM
Notes: natural RNA segment, single round, ends assumed
Reference: no-protein control
Reading: higher = stronger binding
Shared flanks, not repeated: GGGAGUUCUACAGUCCGACGAUC … UGGAAUUCUCGGGUGCCAA
Target sequence (chain): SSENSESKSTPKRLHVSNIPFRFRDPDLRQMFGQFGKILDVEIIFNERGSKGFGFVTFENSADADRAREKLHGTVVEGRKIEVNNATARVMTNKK
Strand | RBNS enrichment (R)
AAUGGUAACUUUAUUUAUUUAAAAACAAAGAAACACAAAUAGUUACUAUUAAACUGAUUAAGGCUGUUUAUUUUUACUCCUAGAAAUGGUCAUAUGAAGUAGAUGUGCAA | 1.56
UUAACCCUUUAUCUUUCUGCCCACCCUGCCCAAACAUAUUUUAACCCAGGUUCUAAACUGAAACUGACUAGAGAUGAAUCCAGCGCCUGACAGAAUGUCAUUCUCCUUCA | 0.364
GGAGCGUCAAAGGUGACCUUUACCCUCACAGCGUACCAAUAAACCACGGUGCCAGCUUUGGAGAUGAGGAUUGGGGACUCUUGUCUGUCAAGAAGGCACCCAAGCGCUCA | 0.275
UUUUUCUAAUGUAUUUAUAAAAGAUCUUUUCCCAUUUAUGCUGGGAAAGUGUUUUUCAAACUCAGUGACAAGGACUUUGGUUUUUGUAAGACUGUUGAUGAUAUGAAGGC | 0.273
AAAUGAGAAGACGUGUUUUUUUCCUUCACCGAUGCUCCAUCCUCGUAUUUCUUUUUCCUUGUAAAUGUAAUCAGAUGCCAUUUUAUAUGUGGACGUAUUUAUACUGGCCA | 0.296
GGGGAGUUUGCUUGGGGCUCUAAGUCUGGGGUAGGUUCUGGGCCUUCACAGAAUGAUGGCAUCUUCCUAAACCCUUCUGGGAGAUGUCUGAGAAGUUGUGAAGGGUCCAG | 0.532
AUACCAUGGGUGCUGUGACACUAACAGUCAUUGAGAGGUGGGAGGAAGUCCCUUUUCCUUGGACUGGUAUCUUUUCAACUAUUGUUUUAUCCUGUCUUUGGGGGCAAUGU | 0.451
GUGUGGGCAUAGCAUUAGCUGCUUCCUCCCCUCCUGGCACCCACUGUGGCCUGGCAUCGCAUCGUGGUGUGUCAAUGCCACAAAAUCGUGUGUCCGUGGAACCAGUCCUA | 0.42
CGACCCCCACCCUAGGGAAUGCAGAGCCUCUCCGCAUGUGUGCGCGUGGCCGUGUCUGUGUAUUUCUACGUGUGUCGCUCUUCAGAAGCAACCUAGUUCCUGGGGCAGCU | 0.55
AGACCAAUCAAGUCACUUGACAAUAUGCCCCAAGUGACUCCCUUACCCUGUUUUAUAAACCUGUGCCUGUCUAUGGAGAAGGUUUUAAUUCUCCUUGUUAUUCAUUUUGG | 0.414
AGGGUACUGUUUUGAGCCAAAGGCUGAUACUUAAUUGAAGAGGGAAAAUGCAGAUUUGGGGACAAAGGUCUUUUUACUGCUCAAGUAGGGUCGCUUCUGUCCUGUUGCAA | 0.481
ACCAGAGUUCAUUUAUCCUUGAAUAAACCUUUUUAUUUUCACCUCAGAAAAGUGAGUGUACUGGCAGUUAGUGUCACUGCUUUGCACAGUCCCCAUUAAAGGACCCUCCA | 0.337

Sample 2
Target: Interferon regulatory factor 7, full length, phosphomimetic (IRF7, Homo sapiens, UniProt Q92985, residues 1-503, S471D/S472D/S475D/S476D/S477D/S483D/S484D/S487D)
UniProt Q92985, sequence (whole entry, unmodified, looked up): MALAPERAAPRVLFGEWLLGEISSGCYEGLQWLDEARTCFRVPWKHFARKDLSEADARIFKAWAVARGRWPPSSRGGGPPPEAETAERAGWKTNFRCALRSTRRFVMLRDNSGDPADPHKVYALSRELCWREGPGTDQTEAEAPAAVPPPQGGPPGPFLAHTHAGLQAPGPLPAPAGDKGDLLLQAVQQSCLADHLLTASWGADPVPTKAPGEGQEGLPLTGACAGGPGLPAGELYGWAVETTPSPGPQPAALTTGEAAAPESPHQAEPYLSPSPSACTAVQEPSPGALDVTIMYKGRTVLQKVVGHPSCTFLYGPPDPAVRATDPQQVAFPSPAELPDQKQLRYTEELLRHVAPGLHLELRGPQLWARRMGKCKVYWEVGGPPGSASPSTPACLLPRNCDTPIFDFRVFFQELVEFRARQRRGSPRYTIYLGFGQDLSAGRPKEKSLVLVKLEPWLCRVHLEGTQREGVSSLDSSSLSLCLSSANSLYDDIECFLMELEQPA
Technique: protein-binding microarray
Form: double-stranded DNA, one strand shown
Matrix: in vitro
Concentration: 2200 nM top
Notes: 60-bp whole probe
Added: salmon DNA 0.4 mg/ml
Reference: random background probes
Reading: higher = stronger binding
Shared flanks, not repeated: GCCTAGCAC … GTCTTGATTCGCTTGACGCTGCTG
Strand | fitted relative affinity
GACAGTATCGGTTTCGGGACGTGCTAG | 4.74 z-score
ACTGATTTCCACTTTCTTAAGTGCTAG | 3.12 z-score
GACGGACTGCTTATCCTGACGTGCTAG | 0.506 z-score
CTGCCTGCTCAGACTGGGGCGTGCTAG | -0.169 z-score
TTAGATATCGGGTTTAGATTAGTGCTA | 0.298 z-score
GACGGTGTCGGGTATCGGGACGTGCTA | -0.8 z-score
TTGTGTTGCTGTTTGAGGAAGTGCTAG | 1.78 z-score
CTAGATTTCGGGTATCGATTAGTGCTA | 3.17 z-score
GACGGTTTCGGACTGGGGCCGTGCTAG | 3.51 z-score
GACGGATTGGGGTTTCGGGACGTGCTA | 1.29 z-score
TTAGATCTCAGGCTGGATTAGTGCTAG | -0.2 z-score
GACGGTCTCCATATCCTGACGTGCTAG | 0.949 z-score
TTAGATTTCAGTTTCGAATAGTGCTAG | 4.02 z-score
GACCGTTTCCTTATCCTGACGTGCTAG | 3.14 z-score
TCAACTTTGGTTTGTACACTGTGCTAG | 1.09 z-score
TTAGGTTTCGGTCTCGTTTAGTGCTAG | 6.69 z-score
GAGGGTATCGGACTGGGGACGTGCTAG | -0.745 z-score
TTTTCATTATTGTGTCAACTTGTGCTA | 2.33 z-score
GACGGTTTCGGGACTGGGAACGTGCTA | 3.61 z-score
TTAGATTTCGCGTATCGATTAGTGCTA | 1.27 z-score
TCACTTCTGGTGCTCATCTGGTGCTAG | 1.41 z-score
GACGACCTGGGGACTGGAGACGTGCTA | -0.548 z-score
ATTAGAGGATAACTTACAGAGTGCTAG | -0.626 z-score

Sample 3
Target: Histone acetyltransferase KAT6A, winged helix 2, GST fusion (KAT6A, Homo sapiens, UniProt Q92794, residues 85-181)
Technique: protein binding microarray
Form: double-stranded DNA, one strand shown
Matrix: in vitro
Concentration: not given
Notes: 8-mer, flanks averaged, mean of 2 arrays, mostly near background
Reference: not given
Reading: higher = stronger binding
Residues (chain): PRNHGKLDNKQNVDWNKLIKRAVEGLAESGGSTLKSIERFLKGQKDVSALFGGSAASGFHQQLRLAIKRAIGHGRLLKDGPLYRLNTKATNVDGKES
Strand | E-score
ATACTAAG | -0.0112
AGGTGGGC | -0.0129
CTCGAAGA | 0.0798
TAAGCCTA | -0.0646
CCACATAG | -0.157
CGGCAATC | 0.152
TATGAACA | -0.0158
AGCCCTTA | -0.078
AACCTAAT | -0.0308
AGGTCGGA | 0.0708
CGAGCTCA | 0.068
GCACGCGA | 0.0793
AGTTGGAG | 0.0783
ACACACAC | -0.00466
CCTAGACC | -0.137
AGTAGTTA | -0.223
GCACAGGA | 0.0488

Sample 4
Target: Runt-related transcription factor 3, Runt domain (RUNX3, Homo sapiens, UniProt Q13761, residues 53-186)
UniProt Q13761, sequence (53-186, looked up): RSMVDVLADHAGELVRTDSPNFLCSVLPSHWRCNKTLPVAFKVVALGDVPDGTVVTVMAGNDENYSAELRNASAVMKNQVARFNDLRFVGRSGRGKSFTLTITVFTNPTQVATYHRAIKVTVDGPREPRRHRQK
Technique: protein-binding microarray
Form: hairpin DNA
Matrix: in vitro
Concentration: not given
Notes: whole hairpin DNA, median over replicate spots
Reference: not given
Reading: higher = stronger binding
Strand | median fluorescence [a.u.]
GAGGCCCAACCGCGACAGCCTCCTGGCTGTCGCGGTTGGGCCTCACACTC (5mC at 31) | 10100
CTCAGTTCGGTGGGCTGGACTCCTGTCCAGCCCACCGAACTGAGACACTC (5mC at 8) | 4520
GAGGCCTGTTGTGGTTCGCCTCCTGGCGAACCACAACAGGCCTCACACTC (5mC at 17) | 4820
CTCAGTTCTGTGGCGTGGACTCCTGTCCACGCCACAGAACTGAGACACTC (5mC at 14 30) | 3850
GAGGCCTGTCCGGGTTGGCCTCCTGGCCAACCCGGACAGGCCTCACACTC (5mC at 33) | 4920
GAGGCCTGTCCGGGTTGGCCTCCTGGCCAACCCGGACAGGCCTCACACTC (5mC at 11 33) | 5080
GAGGCCTGTCGCGGTTGGCCTCCTGGCCAACCGCGACAGGCCTCACACTC (5mC at 10 12) | 5950
GAGGCCTGTCGCCGTTGGCCTCCTGGCCAACGGCGACAGGCCTCACACTC (5mC at 13) | 5330
GAGGCCTGTCACGGTTGGCCTCCTGGCCAACCGTGACAGGCCTCACACTC | 5160
GAGGCCTGTCGCGGTTGGCCTCCTGGCCAACCGCGACAGGCCTCACACTC (5mC at 10 12 34) | 6290
CTCAGTGCTGTGGGCTGGACTCCTGTCCAGCCCACAGCACTGAGACACTC | 4370
GAGGCCCGTTGTGGTTGGCCTCCTGGCCAACCACAACGGGCCTCACACTC (5mC at 37) | 5780
GAGGCCCCGCCGCAACAGCCTCCTGGCTGTTGCGGCGGGGCCTCACACTC (5mC at 8) | 5720
GAGGCCTGTTGCGGCGGGCCTCCTGGCCCGCCGCAACAGGCCTCACACTC (5mC at 29) | 5710
GAGGCCTGTTCCGGTTGGCCTCCTGGCCAACCGGAACAGGCCTCACACTC (5mC at 11) | 4830
CTCAGTCGTGTGGGCTGGACTCCTGTCCAGCCCACACGACTGAGACACTC (5mC at 7) | 4350
CTCAGTGCTGTGGGCTGGACTCCTGTCCAGCCCACAGCACTGAGACACTC (5mC at 38) | 4250
GAGGCCCGTTGCGGTTGGCCTCCTGGCCAACCGCAACGGGCCTCACACTC (5mC at 7 37) | 9430

Sample 5
Target: RING finger protein unkempt homolog, zinc fingers 1-6, GST-SBP tag (UNK, Homo sapiens, UniProt Q9C0B0, residues 30-357)
UniProt Q9C0B0, sequence (30-357, looked up): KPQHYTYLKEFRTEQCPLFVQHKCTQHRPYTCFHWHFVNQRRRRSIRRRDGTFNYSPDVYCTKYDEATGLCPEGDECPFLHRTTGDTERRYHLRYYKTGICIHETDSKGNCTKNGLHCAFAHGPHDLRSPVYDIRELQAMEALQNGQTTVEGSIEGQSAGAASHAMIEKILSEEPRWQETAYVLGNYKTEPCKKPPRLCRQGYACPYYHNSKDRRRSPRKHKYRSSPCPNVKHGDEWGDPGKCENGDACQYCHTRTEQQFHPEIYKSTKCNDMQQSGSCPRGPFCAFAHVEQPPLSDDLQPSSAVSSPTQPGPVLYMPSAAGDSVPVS
Technique: RNA Bind-n-Seq
Form: RNA
Matrix: in vitro
Concentration: not given
Notes: RNA with constant flanks, human and mouse sites, ends assumed
Reference: input RNA pool
Reading: higher = stronger binding
Shared flanks, not repeated: GGGAGUUCUACAGUCCGACGAUC … CAACAGAGGAUUGAGCAUCA
Strand | bound/input enrichment
AAGAUUGAAGGCUUGGAGGUGCUAAAGAAAGUGAAGUCACUCUGCCUUCGUCAAAACCUAAUUAAAUGCAUUGAAAACCUGGAAGAACUGCAGAGUCUUCGAGAACUGGAUCUCUAUGAU | 0.178 ratio
AAGGAGGCUGAGAAAGUGGCCCGGGUGAAGGCGCUAUAUGAGGAGCUGGAUCUGCCAGCAGUGUUCUUGCAAUAUGAGGAAGACAGUUACAGCCACAUUAUGGCUCUCAUUGAACAGUAC | 0.131 ratio
AAGAAGUUUAAGGAAGUGGGAGAGGCCUUUACCAUCCUCUCUGAUCCCAAGAAAAAGACUCGUUAUGACAGUGGACAGGACUUGGAUGAGGAGGGCAUGAAUAUGGGCGAUUUUGAUGCA | 1.04 ratio
GAAGGACACUGCAACAAUAUACAUUGUUUGGCCAAAGCCAUCAACCAGAUUGCUGCAGCUUUGUUUACAAUUCACAAAGGAAGUAUUGAAGACCGACUUAAGGAAUUCCUGGCGCUUGCA | 0.168 ratio
CUCGGCACUGGUACCCUUUACAUCGCUGAGAGCCGCCUGUCUUGGUUAGAUGGCUCUGGAUUAGGAUUCUCACUGGAAUACCCCACCAUUAGUUUACAUGCAUUAUCCAGGGACCGAAGU | 3.77 ratio
GAAGAACGAGACCGAAGAGAAAGCAAGAAGAUUGCGGAUGAAGAUGCCCUGCGGCGGAUCCGGCAGGCAGAAGAGCAGAUUGAACACUUGCAACGCAAAUUGGGUGCCACCAAGCAGGAG | 0.21 ratio
UCACUACUUUCUGUGGAACAGAAAAGCAAAGCGCUAUUCUAAUCAGCAAGUGAUGGCAUCACUGAGCUUCAACUCCACGUGUGUGACUAUAAAACACCCUGUGGCCAAGAGCAGAUUGCC | 0.2 ratio
UUGGGCCUCAGCCCUGGCACCAGCUCUGGCCGCAACCCUGACCCUGGCUCUGGGCCGGGCACUCUGCCGGAUCCCAGCUCCAAACCCCUCCCCGGCUCCAGAUCCACCCCCAGCCCUACU | 0.274 ratio
UUGACUGACUUUGGCUUGUGCACUGGCUUCAGAUGGACACAUGACUCCAAGUACUACCAGAGUGGGGAUCACCCACGGCAAGAUAGCAUGGAUUUCAGUAACGAAUGGGGAGAUCCUUCC | 0.103 ratio
CCUGAGGUGCGGCACCACUGUCCCAACACUCCCAUCAUCCUAGUGGGAACUAAACUUGAUCUUAGGGAUGAUAAAGACACGAUCGAGAAACUGAAGGAGAAGAAGCUGACUCCCAUCACC | 0.379 ratio
CCUUCCUUUUGAAAGCUGAAUUCCAUUGCAUCUGAAGAAGCCUCUCUCAGGGCAUUGGAAAGUCUGAUGACAGAAUUUUUUCACGAUUGUACAACCAAUGAAAGAAAACGUGAGAUAGAG | 0.209 ratio

Some of these lines once more (sample 2):
Strand | fitted relative affinity
GACGACCTGGGGACTGGAGACGTGCTA | -0.548 z-score
GACGGTTTCGGACTGGGGCCGTGCTAG | 3.51 z-score
GACGGACTGCTTATCCTGACGTGCTAG | 0.506 z-score
GACGGTGTCGGGTATCGGGACGTGCTA | -0.8 z-score
TCAACTTTGGTTTGTACACTGTGCTAG | 1.09 z-score
GACGGATTGGGGTTTCGGGACGTGCTA | 1.29 z-score
ACTGATTTCCACTTTCTTAAGTGCTAG | 3.12 z-score
ATTAGAGGATAACTTACAGAGTGCTAG | -0.626 z-score
TTGTGTTGCTGTTTGAGGAAGTGCTAG | 1.78 z-score
GACGGTTTCGGGACTGGGAACGTGCTA | 3.61 z-score
GAGGGTATCGGACTGGGGACGTGCTAG | -0.745 z-score
TTTTCATTATTGTGTCAACTTGTGCTA | 2.33 z-score
TTAGATTTCGCGTATCGATTAGTGCTA | 1.27 z-score
